Assay results from different studies.
Values joined by “and” are separate records of one study, mostly repeats; a detail may differ. ± gives the spread as reported.
UniProt P21802, sequence (whole entry, unmodified, looked up): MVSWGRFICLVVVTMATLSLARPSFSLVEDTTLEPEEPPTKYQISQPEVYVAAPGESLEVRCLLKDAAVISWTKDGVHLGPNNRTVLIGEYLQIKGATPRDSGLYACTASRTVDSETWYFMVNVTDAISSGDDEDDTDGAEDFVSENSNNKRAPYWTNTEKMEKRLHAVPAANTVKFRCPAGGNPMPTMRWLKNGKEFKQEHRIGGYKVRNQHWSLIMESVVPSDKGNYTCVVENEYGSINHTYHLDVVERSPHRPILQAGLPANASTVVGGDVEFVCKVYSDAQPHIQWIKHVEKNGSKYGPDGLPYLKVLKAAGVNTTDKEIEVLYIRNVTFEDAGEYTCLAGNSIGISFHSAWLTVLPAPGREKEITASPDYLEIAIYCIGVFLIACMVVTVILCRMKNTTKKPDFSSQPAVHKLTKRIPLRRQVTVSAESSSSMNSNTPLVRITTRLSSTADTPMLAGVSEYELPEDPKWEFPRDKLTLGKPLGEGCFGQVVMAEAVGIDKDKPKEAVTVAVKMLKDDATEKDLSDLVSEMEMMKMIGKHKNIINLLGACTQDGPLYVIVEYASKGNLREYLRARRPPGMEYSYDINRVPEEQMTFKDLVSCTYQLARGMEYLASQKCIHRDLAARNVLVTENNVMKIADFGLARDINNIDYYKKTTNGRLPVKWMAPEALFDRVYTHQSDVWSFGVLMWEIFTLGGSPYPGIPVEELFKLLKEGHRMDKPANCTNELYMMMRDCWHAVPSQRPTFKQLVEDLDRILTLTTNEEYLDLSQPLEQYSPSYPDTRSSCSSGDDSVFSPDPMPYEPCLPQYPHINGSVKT

Structure (SMILES)	target or system	assay	test system	conditions	scale	quantity	result
COc1ccccc1-c1n[nH]c2nc(NC3CCN(C(=O)Cc4ccc(F)cc4F)CC3)ncc12	–	bead binding, competition bead pull-down, refers to: LINJ.35.1230	Leishmania donovani axenic amastigote extract	10 µM	baseline: vehicle	relative abundance	0.88
COc1cnc2cccc(N3CCc4c(cc(Cn5ccnc5)cc4-c4cn(C)nc4C(F)(F)F)C3=O)c2c1	–	–	CD-1 mice	intraperitoneal, 50 mg/kg once daily, day 5	–	body weight	30 ± 1 g
O=C1NC2(CC2)COc2ncc(F)cc2[C@H]2COCCN2c2ccn3ncc1c3n2	–	–	Sprague-Dawley rat, female, kidneys	oral, 2.5 mg/kg/day, 4 weeks dosing, end of recovery	–	organ-to-brain weight ratio	94.5 ± 4.42%
COc1ccccc1-c1n[nH]c2nc(N[C@H]3CC[C@H](NS(=O)(=O)CC(C)C)CC3)ncc12	–	bead binding, competition bead pull-down, refers to: LINJ.34.0070	Leishmania donovani extract	10 µM	baseline: vehicle	relative abundance	0.96
CCCCCCCCCCCCCC(=O)N[C@H](CCN)C(=O)N[C@@H]1C(=O)N[C@@H](CCN)C(=O)N[C@@H](CC(C)C)C(=O)N[C@@H](CCN)C(=O)N[C@H](Cc2ccccc2)C(=O)N[C@@H](CC(C)C)C(=O)N[C@@H](CCN)C(=O)N[C@H](CCN)C(=O)N[C@@H](C(C)C)C(=O)N[C@@H](CC(=O)O)C(=O)O[C@@H]1C	–	–	rat, plasma	intravenous, 5 mg/kg	–	clearance	1.48 mL/min/kg
CSCC[C@H](N)C(=O)N[C@@H](C)C(=O)N[C@@H](Cc1c[nH]c2ccccc12)C(=O)N[C@@H](Cc1c[nH]cn1)C(=O)N[C@@H](CC(=O)O)C(=O)N[C@@H](CC(=O)O)C(=O)N[C@@H](CCC(=O)O)C(=O)N[C@@H](CCC(=O)O)C(=O)N[C@@H](Cc1ccccc1)C(=O)N[C@@H](C)C(=O)N[C@@H](CCCNC(=N)N)C(=O)N[C@@H](CCCNC(=N)N)C(=O)N[C@@H](CCCNC(=N)N)C(=O)N[C@@H](CCCNC(=N)N)C(=O)NCCCCCC(=O)NCCCCC(NC(=O)CCCCCNC(=O)[C@H](CCCNC(=N)N)NC(=O)[C@H](CCCNC(=N)N)NC(=O)[C@H](CCCNC(=N)N)NC(=O)[C@H](CCCNC(=N)N)NC(=O)[C@H](C)NC(=O)[C@H](Cc1ccccc1)NC(=O)[C@H](CCC(=O)O)NC(=O)[C@H](CCC(=O)O)NC(=O)[C@H](CC(=O)O)NC(=O)[C@H](CC(=O)O)NC(=O)[C@H](Cc1c[nH]cn1)NC(=O)[C@H](Cc1c[nH]c2ccccc12)NC(=O)[C@H](C)NC(=O)[C@@H](N)CCSC)C(=O)NCCCCC(NC(=O)C(CCCCNC(=O)CCCCCNC(=O)[C@H](CCCNC(=N)N)NC(=O)[C@H](CCCNC(=N)N)NC(=O)[C@H](CCCNC(=N)N)NC(=O)[C@H](CCCNC(=N)N)NC(=O)[C@H](C)NC(=O)[C@H](Cc1ccccc1)NC(=O)[C@H](CCC(=O)O)NC(=O)[C@H](CCC(=O)O)NC(=O)[C@H](CC(=O)O)NC(=O)[C@H](CC(=O)O)NC(=O)[C@H](Cc1c[nH]cn1)NC(=O)[C@H](Cc1c[nH]c2ccccc12)NC(=O)[C@H](C)NC(=O)[C@@H](N)CCSC)NC(=O)CCCCCNC(=O)[C@H](CCCNC(=N)N)NC(=O)[C@H](CCCNC(=N)N)NC(=O)[C@H](CCCNC(=N)N)NC(=O)[C@H](CCCNC(=N)N)NC(=O)[C@H](C)NC(=O)[C@H](Cc1ccccc1)NC(=O)[C@H](CCC(=O)O)NC(=O)[C@H](CCC(=O)O)NC(=O)[C@H](CC(=O)O)NC(=O)[C@H](CC(=O)O)NC(=O)[C@H](Cc1c[nH]cn1)NC(=O)[C@H](Cc1c[nH]c2ccccc12)NC(=O)[C@H](C)NC(=O)[C@@H](N)CCSC)C(N)=O (stereo partly drawn)	–	–	C57BL/6 mouse female, uterus	dose not given, 3 h	baseline: total	mean tissue distribution	1.35%
CC(C)(C)C(=O)OCOP(=O)(OCOC(=O)C(C)(C)C)C1CCCN(O)C1=O (stereo not drawn)	DU-145	–	–	–	–	TGI	> 100 µM
CCc1nn(C)c2nc(-c3ccc(C(=O)O)cc3)nc(NCc3ccccc3)c12	–	–	NSG mice	dose not given, day 4 of treatment	–	body weight	23.1 g and 22.8 g and 21.9 g
CC(=O)CCC1C(=O)NC(C(C)C)C(=O)NC(Cc2cc(O)cc(F)c2)C(=O)N2CCCC(N2)C(=O)OC(C(C)=CC=CC(=O)N2CCCCO2)CC=CC=CC(O)C(C)C1O (stereo not drawn)	–	–	CD-1 mice, serum	oral, 250 mg/kg repeated, day 7	–	total bilirubin	3.7 µM
CCCCCCCCCCCCCCCC(=O)N[C@@H](CCC(=O)NCCOCCOCCC(=O)NCCOCCOCCC(=O)NCCCC[C@H](NC(=O)[C@H](CC(=O)O)NC(=O)[C@H](CC(C)C)NC(=O)[C@H](Cc1ccc(O)cc1)NC(=O)[C@H](CCCCN)NC(=O)[C@H](CO)NC(=O)[C@H](Cc1ccc(O)cc1)NC(=O)[C@H](CC(=O)O)NC(=O)[C@H](CO)NC(=O)[C@@H](NC(=O)[C@H](Cc1ccccc1)NC(=O)[C@@H](NC(=O)CNC(=O)[C@H](CCC(N)=O)NC(=O)[C@@H](CO)NC(=O)[C@@H](N)Cc1c[nH]cn1)[C@@H](C)O)[C@@H](C)O)C(=O)N[C@@H](CCCNC(=N)N)C(=O)N[C@@H](CCCNC(=N)N)C(=O)N[C@@H](C)C(=O)N[C@@H](CCC(N)=O)C(=O)N[C@@H](CC(=O)O)C(=O)N[C@@H](Cc1ccccc1)C(=O)N[C@H](C(=O)N[C@@H](CCC(N)=O)C(=O)N[C@@H](Cc1c[nH]c2ccccc12)C(=O)N[C@@H](CC(C)C)C(=O)N[C@@H](CC(C)C)C(=O)N[C@@H](CC(N)=O)C(=O)N[C@H](C(=O)NCC(=O)NCC(=O)N1CCC[C@H]1C(=O)N[C@@H](CO)C(=O)N[C@@H](CO)C(=O)NCC(=O)N[C@@H](C)C(=O)N1CCC[C@H]1C(=O)N1CCC[C@H]1C(=O)N1CCC[C@H]1C(=O)N[C@@H](CO)C(N)=O)[C@@H](C)O)C(C)C)C(=O)O	–	–	rhesus monkey, male	subcutaneous, 300 µg/kg once daily, 28 days	–	creatinine	45.4 ± 6.3 µmol/L
CC[C@H](C)[C@H](NC(=O)[C@H](CO)NC(=O)[C@H](Cc1ccc(O)cc1)NC(=O)[C@H](Cc1ccc(O)cc1)NC(=O)[C@H](CC(N)=O)NC(=O)CNC(=O)[C@H](CO)NC(=O)[C@H](Cc1ccc(O)cc1)NC(=O)[C@H](CO)NC(=O)[C@H](CO)NC(=O)[C@H](CC(N)=O)NC(=O)COCCOCCNC(=O)CN1CCN(CC(=O)O)CCN(CC(=O)O)CCN(CC(=O)O)CC1)C(=O)N[C@@H](CC(C)C)C(N)=O [copper-64 labelled]	–	dynamic PET	tamoxifen-induced PDAC mouse model, pancreas	1.6 min, CLDN4-expressing tumours	–	maximum pancreas uptake	27.3 %IA/cc
Cc1cc(-c2ccc3ccccc3c2)nnc1NCCN1CCN(C)CC1	Caco-2	Caco-2 permeability	basolateral to apical	5 µM, 0.5 h	–	recovery	77.7%
O=C1NC(=O)c2c1c1cc(F)c[n+]3c1c1c2c2cc(O)ccc2[n]1[Ru-4]312([N]=C=S)[S+]3CC[S+]1CC[S+]2CC3 (stereo not drawn)	FGFR2 (Homo sapiens, UniProt P21802, N549H)	enzyme activity	–	100 nM, human enzyme, together with: 10 µM ATP	baseline: untreated	remaining activity	55%
CSCC[C@H](NC(=O)CNC(=O)[C@H](CCCCN)NC(=O)[C@H](CC(C)C)NC(=O)[C@@H]1CCCN1C(=O)[C@H](CO)NC(=O)[C@H](Cc1c[nH]cn1)NC(=O)[C@H](Cc1c[nH]c2ccccc12)NC(=O)[C@H](CCCNC(=N)N)NC(=O)[C@H](CC(C)C)NC(=O)[C@H](CCCNC(=N)N)NC(=O)[C@H](Cc1c[nH]c2ccccc12)NC(=O)[C@H](CS)NC(=O)CCCCCNC(=O)CN1CCN(CC(=O)O)CCN(CC(=O)O)CCN(CC(=O)O)CC1)C(=O)O [copper-64 labelled]	–	PET imaging	BALB/c nude mice, liver	intravenous, dose not given, 55 h, Huh-7 tumour-bearing	–	tissue uptake	5.05 ± 0.19 %ID/g
CC1(C)C(=O)N(c2ccc(C#N)c(C(F)(F)F)c2)C(=S)N1c1ccc(C(=O)O)c(F)c1	–	–	male human, plasma	oral, 40 mg, single dose, fasted	–	Tmax	72 h
C#Cc1c(F)ccc2cc(O)cc(-c3ncc4c(N5CC6CCC(C5)N6C(=O)OC(C)OC(=O)CCCCC)nc(OC[C@@]56CCCN5C[C@H](F)C6)nc4c3F)c12 (stereo partly drawn)	–	chemical stability	simulated intestinal fluid	1 µM, 30 min	–	compound remaining	56.1%
CC[C@H](C)[C@H](NC(=O)[C@H](CCCCN)NC(=O)CNC(=O)[C@H](CC(C)C)NC(=O)[C@H](Cc1ccccc1)NC(=O)[C@H](CCCCN)NC(=O)[C@H](CO)NC(=O)[C@H](Cc1ccccc1)NC(=O)[C@H](Cc1c[nH]c2ccccc12)NC(=O)[C@H](CCC(N)=O)NC(=O)[C@@H](NC(=O)[C@H](Cc1ccccc1)NC(=O)CCCCCNC(=O)CN1CCN(CC(=O)O)CCN(CC(=O)O)CCN(CC(=O)O)CC1)C(C)C)C(=O)N[C@@H](CCC(=O)O)C(=O)N1CCC[C@H]1C(=O)N[C@@H](CC(=O)O)C(=O)N[C@H](C(=O)N[C@@H](CO)C(=O)N[C@@H](CCC(N)=O)C(=O)N[C@H](C(=O)N[C@@H](CCC(N)=O)C(=O)N[C@@H](CC(=O)O)C(=O)N1CCC[C@H]1C(=O)N[C@@H](CC(N)=O)C(=O)N[C@@H](CC(=O)O)C(=O)N[C@@H](CCC(N)=O)C(=O)N[C@@H](Cc1ccc(O)cc1)C(=O)N[C@@H](CCC(=O)O)C(=O)N1CCC[C@H]1C(=O)N[C@@H](Cc1ccccc1)C(=O)O)C(C)C)C(C)C [copper-64 labelled]	–	dynamic PET	mouse both sexes, CT26 tumour, untreated, tumour	intravenous, 100 µCi/mouse, 150 s	–	SUVmean	0.55 SUV
N=C(N)NCCC[C@@H](NC(=O)[C@H](N)Cc1c[nH]c2ccccc12)C(=O)N[C@H](CCCCN)C(=O)N[C@H](Cc1c[nH]c2ccccc12)C(=O)N[C@H](CCCNC(=N)N)C(=O)N[C@H](CCCCN)C(=O)N[C@H](Cc1c[nH]c2ccccc12)C(=O)N[C@H](CCCNC(=N)N)C(=O)N[C@H](CCCCN)C(=O)N[C@H](Cc1c[nH]c2ccccc12)C(=O)N[C@H](CCCNC(=N)N)C(=O)N[C@H](CCCCN)C(N)=O	–	–	mouse, urine	30 mg/kg	–	Kim-1 level	43.4 ng/mL

Some of these lines once more:
Structure (SMILES)	target or system	assay	test system	conditions	scale	quantity	result
C#Cc1c(F)ccc2cc(O)cc(-c3ncc4c(N5CC6CCC(C5)N6C(=O)OC(C)OC(=O)CCCCC)nc(OC[C@@]56CCCN5C[C@H](F)C6)nc4c3F)c12 (stereo partly drawn)	–	chemical stability	simulated intestinal fluid	1 µM, 30 min	–	compound remaining	56.1%
